Measurements collected from several papers.
Parts stem from different laboratories: compare values within a part only.

Set 1
Organism: VSVΔG with SARS-CoV-2 spike
Effect on: pseudovirus infection
Strain: Wuhan variant
Concentration: 10 µM
SMILES | inhibition [%]
Cc1nc2cc(-c3cccc4ccnn34)ccc2s1 | 86
Oc1ccc2ccccc2c1N=Nc1ccccn1 | 51
N#CC(=NNc1ccc(OC(F)(F)F)cc1)C(=O)c1ccc(Cl)cc1 | 41
c1cc(OCCn2ccnc2)cc(-c2ccnc3[nH]ccc23)c1 | 45
COc1cccc(C(=O)N/N=C(\C)c2ccccc2O)c1 | 42
COc1ccccc1C(=O)c1sc(Nc2ccc(C(C)C)cc2)nc1N | 35
C=CCNc1nnc(Sc2ncnc3ccsc23)s1 | 49
CCc1ccc2nc(C)c(CN3CCCC3)c(O)c2c1 | 35

Other studies, line by line
rep nsp12 RdRp: Replicase polyprotein 1ab, nsp12 RdRp (rep, Severe acute respiratory syndrome coronavirus 2, UniProt P0DTD1)
Structure (SMILES) | tested on | test | test system | setting | measurement | result
COc1ccc(-c2cc(=O)c3c(O)cc(O)c(-c4cc(-c5cc(=O)c6c(O)cc(OC)cc6o5)ccc4OC)c3o2)cc1 | Replicase polyprotein 1ab, main protease (rep, Severe acute respiratory syndrome coronavirus 2, UniProt P0DTD1) | enzyme activity, inhibitor |  |  | Ki | 2960 nM
C[C@@H]1O[C@@H](OC[C@H]2O[C@@H](Oc3cc(O)c4c(=O)cc(-c5ccc(O)cc5)oc4c3)[C@H](O[C@@H]3O[C@@H](C)[C@H](O)[C@@H](O)[C@H]3O)[C@@H](O)[C@@H]2O)[C@H](O)[C@H](O)[C@H]1O | rep nsp12 RdRp | binding, biolayer interferometry |  | 50 µM | BLI response | 0.04 nm
CC(C)(C)[C@H](NC(=O)C(F)(F)F)C(=O)N1C[C@H]2[C@@H]([C@H]1C(=O)N[C@H](C#N)C[C@@H]1CCNC1=O)C2(C)C | SARS-CoV-2 | viral replication | VeroE6/TMPRSS2, Omicron variants | 0.3 µM | inhibition | 100%
CC#CCn1c(N2CCC[C@@H](N)C2)nc2c1c(=O)n(Cc1nc(C)c3ccccc3n1)c(=O)n2C | SARS-CoV-2 | viral replication | Vero E6, B.1.1.7 (Alpha) | 48 h | IC50 | 1950 nM
NNC(=O)c1ccncc1 | Mycobacterium tuberculosis | bacterial growth | fluoroquinolone-resistant |  | IC50 | 310 nM
Nc1ccc(/C=C/C(=O)NCc2cc3cc(-c4ccc(C(=O)N5CCC(F)(F)CC5)cc4)cc(-c4ccc(F)cc4)c3o2)cn1 | rep nsp12 RdRp | binding, biolayer interferometry |  | concentration not given | BLI response | -0.02 nm
CO[C@H]1/C=C/O[C@@]2(C)Oc3c(C)c(O)c4c(O)c(c(/C=N/N5CCN(C)CC5)c(O)c4c3C2=O)NC(=O)/C(C)=C\C=C\[C@H](C)[C@H](O)[C@@H](C)[C@@H](O)[C@@H](C)[C@H](OC(C)=O)[C@@H]1C | Mycobacterium tuberculosis | bacterial growth | fluoroquinolone-resistant |  | IC50 | 13 nM
N[C@@H](CC(=O)N1CCn2c(nnc2C(F)(F)F)C1)Cc1cc(F)c(F)cc1F | SARS-CoV-2 | viral replication | Vero E6, B.1.617.2 (Delta) | 48 h | IC50 | 1840 nM

Some of these lines once more (set 1):
SMILES | inhibition [%]
Cc1nc2cc(-c3cccc4ccnn34)ccc2s1 | 86
Oc1ccc2ccccc2c1N=Nc1ccccn1 | 51
